Published values collected from several papers.
Compare with care: the assays were run in different laboratories. Numbers after ± are the reported error.
Organism: Pseudomonas aeruginosa

Structure (SMILES)	assay	system	setting	how to read	measurement	value
CC[C@H](C)[C@H](NC(=O)[C@H](Cc1c[nH]cn1)NC(=O)[C@H](CCCCNC(=O)[C@@H](NC(=O)[C@H](CCCCN)NC(=O)CSC[C@H](NC(=O)[C@H](Cc1ccccc1)NC(=O)[C@H](CCCCNC(=O)[C@H](CC(C)C)NC(=O)[C@@H]1CCCN1C(=O)[C@H](CCCCN)NC(=O)c1ccc(O[C@@H]2O[C@H](CO)[C@H](O)[C@H](O)[C@H]2O)cc1)NC(=O)[C@H](CC(C)C)NC(=O)[C@@H]1CCCN1C(=O)[C@H](CCCCN)NC(=O)C[C@@H]1O[C@@H](C)[C@@H](O)[C@@H](O)[C@@H]1O)C(N)=O)[C@@H](C)CC)NC(=O)[C@@H](NC(=O)[C@H](CCCCN)NC(=O)CSC[C@H](NC(=O)[C@H](Cc1ccccc1)NC(=O)[C@H](CCCCNC(=O)[C@H](CC(C)C)NC(=O)[C@@H]1CCCN1C(=O)[C@H](CCCCN)NC(=O)c1ccc(O[C@@H]2O[C@H](CO)[C@H](O)[C@H](O)[C@H]2O)cc1)NC(=O)[C@H](CC(C)C)NC(=O)[C@@H]1CCCN1C(=O)[C@H](CCCCN)NC(=O)C[C@@H]1O[C@@H](C)[C@@H](O)[C@@H](O)[C@@H]1O)C(N)=O)[C@@H](C)CC)C(N)=O		PAO1	biofilm-forming conditions		MBC	> 45 µM
CC[C@H](C)[C@H](NC(=O)[C@H](CCCCN)NC(=O)[C@H](CCCCN)NC(=O)[C@H](CC(C)C)NC(=O)[C@H](CCCCN)NC(=O)[C@H](CCC(=O)O)NC(=O)[C@H](CCCCN)NC(=O)[C@@H](NC(=O)[C@H](CCCCN)NC(=O)[C@H](CC(N)=O)NC(=O)[C@H](CCCNC(=N)N)NC(=O)[C@H](Cc1ccccc1)NC(=O)[C@H](CCCCN)NC(=O)[C@H](CCCNC(=N)N)NC(=O)[C@H](CC(C)C)NC(=O)[C@H](CCCNC(=N)N)NC(=O)[C@H](CCCCN)NC(=O)[C@H](CCCNC(=N)N)NC(=O)[C@H](CC(C)C)NC(=O)CN)[C@@H](C)CC)C(=O)NCC(=O)N[C@@H](CCC(N)=O)C(=O)N[C@@H](CCCCN)C(=O)N[C@H](C(=O)N[C@@H](CCC(N)=O)C(=O)NCC(=O)N[C@@H](Cc1ccccc1)C(=O)N[C@H](C(=O)N1CCC[C@H]1C(=O)N[C@@H](CCCCN)C(=O)N[C@@H](CC(C)C)C(=O)N[C@@H](C)C(=O)N1CCC[C@H]1C(=O)N[C@@H](CCCNC(=N)N)C(=O)N[C@H](C(=O)N[C@@H](CC(=O)O)C(=O)N[C@@H](Cc1ccc(O)cc1)C(=O)O)[C@@H](C)O)C(C)C)[C@@H](C)CC	inhibition zone	O1	LB agar, overnight		lethal concentration	1.4 µM
CCCC(=O)NCC(=O)N[C@@H](CC(C)C)C(=O)N[C@@H](CC(C)C)C(=O)N[C@@H](CCCCN)C(=O)N[C@@H](CCCNC(=N)N)C(=O)N[C@H](C(=O)N[C@@H](CCCCN)C(=O)N[C@H](C(=O)N[C@@H](CC(C)C)C(=O)N[C@@H](CC(C)C)C(=O)NCCCC[C@H](NC(=O)[C@H](CC(C)C)NC(=O)[C@H](CC(C)C)NC(=O)[C@@H](NC(=O)[C@H](CCCCN)NC(=O)[C@@H](NC(=O)[C@H](CCCNC(=N)N)NC(=O)[C@H](CCCCN)NC(=O)[C@H](CC(C)C)NC(=O)[C@H](CC(C)C)NC(=O)CNC(=O)CCC)[C@@H](C)CC)[C@@H](C)O)C(=O)NCCCC[C@H](NC(=O)[C@H](CCCCNC(=O)[C@H](CC(C)C)NC(=O)[C@H](CC(C)C)NC(=O)[C@@H](NC(=O)[C@H](CCCCN)NC(=O)[C@@H](NC(=O)[C@H](CCCNC(=N)N)NC(=O)[C@H](CCCCN)NC(=O)[C@H](CC(C)C)NC(=O)[C@H](CC(C)C)NC(=O)CNC(=O)CCC)[C@@H](C)CC)[C@@H](C)O)NC(=O)[C@H](CC(C)C)NC(=O)[C@H](CC(C)C)NC(=O)[C@@H](NC(=O)[C@H](CCCCN)NC(=O)[C@@H](NC(=O)[C@H](CCCNC(=N)N)NC(=O)[C@H](CCCCN)NC(=O)[C@H](CC(C)C)NC(=O)[C@H](CC(C)C)NC(=O)CNC(=O)CCC)[C@@H](C)CC)[C@@H](C)O)C(N)=O)[C@@H](C)O)[C@@H](C)CC	checkerboard	ATCC 27853	together with: polymyxin B		FIC index	0.188
CC[C@H](C)[C@H](NC(=O)[C@H](CCCCN)NC(=O)[C@H](CCCCN)NC(=O)[C@H](CC(C)C)NC(=O)[C@H](CCCCN)NC(=O)[C@H](CCC(=O)O)NC(=O)[C@H](CCCCN)NC(=O)[C@@H](NC(=O)[C@H](CCCCN)NC(=O)[C@H](CC(N)=O)NC(=O)[C@H](CCCNC(=N)N)NC(=O)[C@H](Cc1ccccc1)NC(=O)[C@H](CCCCN)NC(=O)[C@H](CCCNC(=N)N)NC(=O)[C@H](CC(C)C)NC(=O)[C@H](CCCNC(=N)N)NC(=O)[C@H](CCCCN)NC(=O)[C@H](CCCNC(=N)N)NC(=O)[C@H](CC(C)C)NC(=O)[C@@H](N)CCCNC(=N)N)[C@@H](C)CC)C(=O)NCC(=O)N[C@@H](CCC(N)=O)C(=O)N[C@@H](CCCCN)C(=O)N[C@H](C(=O)N[C@@H](CCC(N)=O)C(=O)NCC(=O)N[C@@H](Cc1ccccc1)C(=O)N[C@H](C(=O)N1CCC[C@H]1C(=O)N[C@@H](CCCCN)C(=O)N[C@@H](CC(C)C)C(=O)N[C@@H](CCC(N)=O)C(=O)N1CCC[C@H]1C(=O)N[C@@H](CO)C(=O)N[C@@H](CCCCN)C(=O)N[C@@H](CCC(N)=O)C(=O)N[C@@H](CO)C(=O)O)C(C)C)[C@@H](C)CC	inhibition zone method	11092618, LB 0.8% agar with 154 mM NaCl	overnight, 37 °C		lethal concentration	4.34 µM
C[C@H]1COc2c(N3CCN(C)CC3)c(F)cc3c(=O)c(C(=O)N[C@@H](CCCNC(=N)N)C(=O)N[C@@H](Cc4ccc(-c5ccccc5)cc4)C(=O)N[C@@H](CCCNC(=N)N)C(=O)N[C@@H](Cc4ccc(-c5ccccc5)cc4)C(=O)N[C@@H](CCCNC(=N)N)C(N)=O)cn1c23		ATCC 3197		relative to: IC50 MDCK cells over MIC	selectivity index	4.4
CN1CC(=O)N=C1N.C[C@H](CCC(=O)O)[C@H]1CC[C@H]2[C@@H]3CC[C@@H]4C[C@H](O)CC[C@]4(C)[C@H]3CC[C@]12C		TISTR357	1 mg per disc, 18 to 24 h, 37 °C		antibacterial activity	inactive
O=C1NC(=O)c2c(NCCCc3cccc(O)c3)cccc21			125 µM, 13 h	relative to: untreated	secreted pyoverdine	~4 fold
CC[C@H](C)[C@H](NC(=O)[C@H](CCCNC(=N)N)NC(=O)[C@@H](NC(=O)[C@H](C)NC(=O)[C@@H](NC(=O)[C@@H](NC(=O)[C@H](CC(C)C)NC(=O)[C@H](CCCNC(=N)N)NC(=O)[C@@H](N)C(C)C)[C@@H](C)CC)C(C)C)C(C)C)C(=O)N[C@@H](Cc1c[nH]c2ccccc12)C(=O)N[C@@H](CCCNC(=N)N)C(=O)N[C@@H](CCCNC(=N)N)C(N)=O		PAO1, Galleria mellonella larvae	proleg injection, 20 µg per larva, 48 h post infection, 37 °C, dosed 1 h after infection		survival	3 ± 5%
NCCCC[C@H](NC(=O)[C@@H]1CSCC(=O)N[C@@H](CCCCN)C(=O)N[C@@H](Cc2ccccc2)C(=O)N[C@@H](CCCCN)C(=O)N[C@H]2CCCCNC(=O)[C@H](CCCCN)NC(=O)[C@H](Cc3ccccc3)NC(=O)[C@H](CCCCN)NC(=O)CSC[C@H](NC(=O)[C@H](Cc3ccccc3)NC(=O)[C@H](Cc3ccccc3)NC(=O)[C@H](CCCCN)NC2=O)C(=O)N[C@@H](Cc2ccccc2)C(=O)N[C@@H](Cc2ccccc2)C(=O)N[C@@H](Cc2ccccc2)C(=O)N1)C(N)=O		PAO1	24 to 25 h		minimal biofilm inhibitory concentration	32 µg/mL
C[C@@](O)(C(F)F)[C@H](NC(=O)c1ccc(C#CC#CC2CC2)cc1)C(=O)NO	broth microdilution	PAO1	together with: mouse plasma 50%	relative to: CAMHB alone	MIC fold increase	4
